Measurements of several laboratories.
Lines come from different studies, so protocols differ. ± gives the spread as reported.

Structure (SMILES) | target or system | assay | system | setting | scale | measurement | result
CC(C)OCCOCc1ccc(OCC(O)CN(N=O)C(C)C)cc1 (stereo not drawn) | Salmonella typhimurium | Ames test | TA1535 | 500 µg/plate, without metabolic activation | relative to: solvent control | revertant fold increase | 0.7 fold
COc1cccc(OC)c1-c1cc(C(=O)NC2(C(=O)O)C3CC4CC(C3)CC2C4)nn1-c1ccc(C(=O)N(C)CCOCCN(C)C(=O)[C@H](CCCCNC(=O)[C@H](CC(C)C)NC(=O)C2OC2C(=O)O)NC(=O)CN2CCN(CC(=O)[O-])CCN(CC(=O)[O-])CCN(CC(=O)[O-])CC2)cc1C(C)C.[177Lu+3] (mixture of isomers) | – | – | mouse, HT-29 xenograft, muscle | 24 h post injection | – | tissue uptake | 0.7 %ID/g
N#C[C@@H]1CC(F)(F)CN1C(=O)CNC(=O)c1ccnc2c(NC(=O)[C@@H](N)CCCCNC(=O)CCOCCOCCOCCOCCOCCOCCNC(=O)CN3CCN(CC(=O)[O-])CCN(CC(=O)[O-])CCN(CC(=O)[O-])CC3)cccc12.[177Lu+3] | – | – | mouse, U-87 MG tumour xenograft, lung | 24 h | – | tissue uptake | 0.13 ± 0.08 %ID/g
CNC(=O)C1CCCN(C(=O)C2CC3CCC2N3C(=O)[C@@H]2C[C@@H](O)CN2C(=O)NCc2cccc(Cl)c2F)C1 (mixture of isomers) | CYP3A4 (human) | inhibitor, time-dependent inhibition | – | 5.56 µM, preincubated without NADPH, together with: testosterone substrate | – | 6β-hydroxytestosterone formation | 174 ng/mL
COc1cccc(OC)c1-c1cc(C(=O)NC2(C(=O)O)C3CC4CC(C3)CC2C4)nn1-c1ccc(C(=O)N(C)CCCN(C)CCCN(C)C(=O)[C@H](CCCCNC(=O)[C@H](CC(C)C)NC(=O)C2OC2C(=O)O)NC(=O)CN2CCN(CC(=O)[O-])CCN(CC(=O)[O-])CCN(CC(=O)[O-])CC2)cc1C(C)C.[177Lu+3] (mixture of isomers) | – | – | mouse, HT-29 xenograft, brain | 24 h post injection | – | tissue uptake | 0.07 %ID/g
[123I]c1ccc2nc(-c3ccc(-n4ccnn4)nc3)cn2c1 | – | – | Wistar rat, male, adrenals | intravenous, 4 MBq, 30 min | – | tissue uptake | 12.3 ± 4.48 %ID/g
COc1cccc(OC)c1-c1cc(C(=O)NC2(C(=O)O)C3CC4CC(C3)CC2C4)nn1-c1ccc(C(=O)NCCNC(=O)[C@H](CCCCNC(=O)[C@H](CC(C)C)NC(=O)C2OC2C(=O)O)NC(=O)CN2CCN(CC(=O)[O-])CCN(CC(=O)[O-])CCN(CC(=O)[O-])CC2)cc1C(C)C.[177Lu+3] (mixture of isomers) | – | – | mouse, HT-29 xenograft, liver | 168 h post injection | – | tissue uptake | 1.4 %ID/g
COC1CN([C@H]2CC[C@H]([C@@]3(C)Oc4c(Cl)cc(C(=O)NCc5c(SC)cc(C)[nH]c5=O)c(C)c4O3)CC2)C1 | – | RNA-seq, measured: CERS4 | human, whole blood | dose not given, 24 h | relative to: pretreatment baseline | log2 fold change | 3.05
Cc1cc(C)n(CCN(CCN)CCCCCCNC(=O)[C@@H](N)Cc2c[nH]cn2)n1.[99Tc+].[C-]#[O+].[C-]#[O+].[C-]#[O+] | – | – | BALB/c nude mice, MCF7 xenograft, kidney | intravenous, 15 min | – | tissue uptake | 30.6 ± 1.62 %IA/g
O=C(NCC1OC2CCC=CCCC2O1)c1ccc([18F])nc1 (stereo not drawn) | – | – | healthy female BALB/c nude mice, small intestine | intravenous, 7.4 MBq per mouse, 60 min | – | tissue uptake | 6.1 ± 1.2 %ID/g
N#C[C@@H]1CC(F)(F)CN1C(=O)CNC(=O)c1ccnc2c(NC(=O)[C@H](CCCCNC(=O)CCOCCOCCOCCOCCOCCOCCNC(=O)CN3CCN(CC(=O)[O-])CCN(CC(=O)[O-])CCN(CC(=O)[O-])CC3)NC(=O)CCCc3ccc(I)cc3)cccc12.[177Lu+3] | – | – | mouse, U-87 MG tumour xenograft, spleen | 72 h | – | tissue uptake | 0.83 ± 0.59 %ID/g
CCCC[C@H](NC(=O)CNC(=O)CNC(=O)[C@H](CCCCNC(=O)[C@H](CC(=O)O)NC(=O)C(C)c1ccc(CC(C)C)cc1)NC(=O)CN1CCN(CC(=O)O)CCN(CC(=O)O)CCN(CC(=O)O)CC1)C(=O)N[C@H]1CC(=O)NCCCC[C@@H](C(N)=O)NC(=O)[C@H](Cc2c[nH]c3ccccc23)NC(=O)[C@H](CCCNC(=N)N)NC(=O)[C@@H](Cc2ccccc2)NC(=O)[C@H](Cc2c[nH]cn2)NC1=O (stereo partly drawn) [lutetium-177 labelled] | – | – | C57 mouse, muscle | intravenous, 2 h, together with: 10 µg NDP-MSH co-injection | – | tissue uptake | 0.58 ± 0.26 %ID/g
[11CH3]N1CCC(NC(=O)c2cc(-c3c(O)cc(O)cc3Oc3ccc([N+](=O)[O-])cc3)on2)CC1 | – | – | Wistar rat, female, healthy, lungs | intravenous, 30 min | – | tissue uptake | 0.6 ± 0.1 %ID
O=C(N/N=C/c1ccc(C[n+]2ccccc2)cc1)c1cncc(C(=O)N/N=C/c2ccc(C[n+]3ccccc3)cc2)n1 | MYC parallel G4 DNA | FRET melting | – | 1 µM, DNA 0.2 µM, together with: duplex DNA competitor 10 µM | – | ΔTm | 4.3 ± 0.2 °C
COc1cccc(OC)c1-c1cc(C(=O)NC2(C(=O)O)C3CC4CC(C3)CC2C4)nn1-c1ccc(C(=O)N(C)CCCN(C)C(=O)[C@H](CCCCNC(=O)[C@H](CC(C)C)NC(=O)C2OC2C(=O)O)NC(=O)CN2CCN(CC(=O)[O-])CCN(CC(=O)[O-])CCN(CC(=O)[O-])CC2)cc1C(C)C.[177Lu+3] (mixture of isomers) | – | – | mouse, HT-29 xenograft, heart | 168 h post injection | – | tissue uptake | 0.034 %ID/g
O=C(O)CCCOc1ccc([18F])cc1-c1cc(-c2ccccc2C(F)(F)F)n(-c2ccccc2)n1 | – | – | mouse, large intestine | intravenous, dose not given, 60 min | – | tissue uptake | 0.52 ± 0.08 %ID/g
CC(C)Cc1ccc(C(C)C(=O)N[C@@H](CCCCNC(=O)CCOCCOCCOCCOCCOCCOCCNC(=O)CN2CCN(CC(=O)[O-])CCN(CC(=O)[O-])CCN(CC(=O)[O-])CC2)C(=O)Nc2cccc3c(C(=O)NCC(=O)N4CC(F)(F)C[C@H]4C#N)ccnc23)cc1.[177Lu+3] (stereo partly drawn) | – | – | mouse, U-87 MG tumour xenograft, brain | 48 h | – | tissue uptake | 0.01 %ID/g
C[n+]1cc(/C=N/NC(=O)c2cncc(C(=O)N/N=C/c3cc4ccccc4[n+](C)c3)n2)cc2ccccc21 | MYC parallel G4 DNA | FRET melting | – | 1 µM, DNA 0.2 µM, together with: duplex DNA competitor 10 µM | – | ΔTm | 4.6 ± 0.2 °C

A few entries again:
Structure (SMILES) | target or system | assay | system | setting | scale | measurement | result
[11CH3]N1CCC(NC(=O)c2cc(-c3c(O)cc(O)cc3Oc3ccc([N+](=O)[O-])cc3)on2)CC1 | – | – | Wistar rat, female, healthy, lungs | intravenous, 30 min | – | tissue uptake | 0.6 ± 0.1 %ID
O=C(N/N=C/c1ccc(C[n+]2ccccc2)cc1)c1cncc(C(=O)N/N=C/c2ccc(C[n+]3ccccc3)cc2)n1 | MYC parallel G4 DNA | FRET melting | – | 1 µM, DNA 0.2 µM, together with: duplex DNA competitor 10 µM | – | ΔTm | 4.3 ± 0.2 °C
